# Measured values gathered from unrelated publications.
# Compare with care: the assays were run in different laboratories. ± gives the spread as reported.
# SCRIB PDZ3 domain: Protein scribble homolog, PDZ3 domain (SCRIB, Homo sapiens, UniProt Q14160)
# Chain of UniProt Q14160 (whole entry, looked up): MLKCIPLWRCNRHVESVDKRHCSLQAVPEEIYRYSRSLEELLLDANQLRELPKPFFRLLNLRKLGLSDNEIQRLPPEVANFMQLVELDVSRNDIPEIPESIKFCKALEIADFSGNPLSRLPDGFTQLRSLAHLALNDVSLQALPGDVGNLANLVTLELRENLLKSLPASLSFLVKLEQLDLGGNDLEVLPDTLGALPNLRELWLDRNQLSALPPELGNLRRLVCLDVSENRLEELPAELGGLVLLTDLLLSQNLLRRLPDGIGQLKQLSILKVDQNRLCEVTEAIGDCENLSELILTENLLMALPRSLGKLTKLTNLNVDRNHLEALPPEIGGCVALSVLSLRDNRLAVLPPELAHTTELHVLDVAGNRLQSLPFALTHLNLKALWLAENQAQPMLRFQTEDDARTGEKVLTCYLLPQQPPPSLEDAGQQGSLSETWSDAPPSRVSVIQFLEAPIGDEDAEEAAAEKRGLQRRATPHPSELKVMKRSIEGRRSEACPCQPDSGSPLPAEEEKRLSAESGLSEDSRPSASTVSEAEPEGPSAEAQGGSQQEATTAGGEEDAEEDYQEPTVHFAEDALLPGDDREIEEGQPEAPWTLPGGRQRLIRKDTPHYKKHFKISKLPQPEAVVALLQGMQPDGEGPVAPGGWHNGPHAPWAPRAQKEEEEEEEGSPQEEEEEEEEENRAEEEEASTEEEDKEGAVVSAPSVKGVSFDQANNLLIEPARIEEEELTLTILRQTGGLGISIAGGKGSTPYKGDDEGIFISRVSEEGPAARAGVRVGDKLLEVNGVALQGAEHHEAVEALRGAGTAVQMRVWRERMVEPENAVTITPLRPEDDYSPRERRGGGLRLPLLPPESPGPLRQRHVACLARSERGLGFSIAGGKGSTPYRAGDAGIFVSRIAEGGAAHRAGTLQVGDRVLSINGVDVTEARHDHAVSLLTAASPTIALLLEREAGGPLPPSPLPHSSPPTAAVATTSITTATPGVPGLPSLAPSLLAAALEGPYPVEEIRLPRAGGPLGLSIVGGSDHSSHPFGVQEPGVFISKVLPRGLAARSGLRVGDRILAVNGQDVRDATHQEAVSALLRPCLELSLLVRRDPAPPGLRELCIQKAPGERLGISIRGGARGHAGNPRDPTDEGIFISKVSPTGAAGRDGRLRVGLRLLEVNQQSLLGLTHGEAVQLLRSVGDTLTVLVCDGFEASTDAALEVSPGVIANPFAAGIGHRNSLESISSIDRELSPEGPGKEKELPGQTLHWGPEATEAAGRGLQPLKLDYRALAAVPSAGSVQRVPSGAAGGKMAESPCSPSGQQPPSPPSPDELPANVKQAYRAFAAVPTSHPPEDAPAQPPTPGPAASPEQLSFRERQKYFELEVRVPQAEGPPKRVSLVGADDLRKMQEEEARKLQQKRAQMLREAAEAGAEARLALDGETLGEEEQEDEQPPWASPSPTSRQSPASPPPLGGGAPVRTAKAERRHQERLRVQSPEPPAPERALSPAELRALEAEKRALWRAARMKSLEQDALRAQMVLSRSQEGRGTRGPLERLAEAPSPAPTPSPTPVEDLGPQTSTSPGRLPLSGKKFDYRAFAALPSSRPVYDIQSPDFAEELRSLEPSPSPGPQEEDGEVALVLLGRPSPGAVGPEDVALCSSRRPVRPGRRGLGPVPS
Compound,tested on,assay,system,setting,scale,endpoint,value
COc1cc2c(Oc3ccc4[nH]c(C)cc4c3F)ccnc2cc1OCC1(N)CC1,,,paediatric recurrent refractory sarcoma,"concentration not given, whole group",,grade 3 Appendicitis,2.9%
CN1CC[C@@H](c2c(O)cc(O)c3c(=O)cc(-c4ccc(C(F)(F)F)cc4Cl)oc23)[C@@H]1CO,,,"human, relapsed/refractory hematologic malignancies","oral, dose not given, of 9 patients discontinued",,related pneumonitis discontinuations,3 cases
CC[C@H](C)[C@@H]1NC(=O)[C@@H]2CSSC[C@H](NC(=O)[C@H](CCCNC(=N)N)NC(=O)[C@@H]3CSSC[C@H](NC1=O)C(=O)N[C@@H]([C@@H](C)O)C(=O)N[C@@H](CCCNC(=N)N)C(=O)NCC(=O)N[C@@H](Cc1ccccc1)C(=O)N3)C(=O)N[C@@H](CC(C)C)C(=O)N[C@H]1CSSC[C@H](NC(=O)[C@H](C(C)C)NC(=O)CNC(=O)[C@H](CCCNC(=N)N)NC(=O)[C@H](CCCNC(=N)N)NC1=O)C(=O)N[C@@H](CCCNC(=N)N)C(=O)N2,,,"Sprague-Dawley rats, female, adrenal gland",20 mg/kg,direction not given,adrenal necrosis score,3 to 5
CCN1[C@@H](C(=O)NC23CCC(C(=O)O)(CC2)CC3)[C@H](c2cccc(Cl)c2F)[C@]2(C(=O)Nc3cc(Cl)ccc32)C12CCCCC2,,,patients with advanced solid tumours,"oral, 100 mg",,grade ≥3 Anemia incidence,9.1%
COc1ncnn2ccc(-c3cnc4nc(C)n(Cc5nnc([C@@H](C)F)o5)c4c3)c12,,,human,"oral, dose not given, grade 5",,patients with amylase increased,0%
CC(C)C[C@H](NC(=O)[C@H](CC(N)=O)NC(=O)[C@@H](NC(=O)[C@H](CCC(=O)O)NC(=O)[C@H](CC(=O)O)NC(=O)[C@H](Cc1c[nH]c2ccccc12)NC(=O)[C@H](C)NC(=O)[C@@H]1CCCN1C(=O)[C@H](CC(=O)O)NC(=O)[C@@H](N)CC(N)=O)[C@@H](C)O)C(=O)O,SCRIB PDZ3 domain,"binding, fluorescence polarization",solution,Scribble PDZ3 domain,,Kd,4.9 µM
O=C1Nc2cc3[nH]nc(-c4ccncc4)c3cc2CN1Cc1ccccc1,,CTCAE v4.03,advanced solid tumour patients,"intravenous, 3.6 mg/kg",,patients with blurred vision,0%
Cc1ccc(F)c2cc(C(=O)N[C@@H]3CCC[C@H](N4CC[C@H](N(C)S(C)(=O)=O)C4)C3)[nH]c12,,,"CD1 mouse, plasma","oral, 100 mg/kg, 10 h",,plasma concentration,422 ng/mL
C[C@]1(CO)Cc2ncn(-c3ccc(C#N)c(Cl)c3)c2C(=O)O1,,,healthy humans,"concentration not given, multiple dose part total",,drug-related Somnolence incidence,2.2%
Cn1c(-c2ccc(C(N)=O)cc2F)nnc1C(C)(C)Oc1c(F)cc(Cl)cc1F,,,human,"oral, dose not given, single ascending dose all doses",,subjects with puncture site pain,5.6%
O=C(Nc1ccccc1)C1CCN(C(=O)Oc2cccnc2)CC1,,Bond-Lader VAS,healthy women,"oral, 60 mg","baseline: pre-dose baseline, direction not given",change in Tense-Relaxed score,12
CC(C)(O)c1cc(Nc2cc(Oc3cn(C4CC4)nc3C3CCOCC3)ccn2)ccn1,,,"patients with advanced cancer, Japanese cohort","oral, dose not given, treatment-related adverse events",,"AST increased, grade ≥3",0%
N=C(N)NCCC[C@@H](NC(=O)[C@@H](N)Cc1ccccc1)C(=O)N[C@@H](Cc1ccccc1)C(=O)N[C@@H](CCCCN)C(N)=O,,,"early Huntington's disease patients, plasma","subcutaneous, 5 mg daily, day 7, median",,apparent volume of distribution,24 L
C[C@@H](NC(=O)N1C(=O)[C@H](Cc2ccnc(N)c2)[C@H]1C(=O)O)C1CCCCC1,,,healthy adult Chinese volunteers,"continuous intravenous infusion, 1.5 mg/kg/h, 5-day infusion, CTCAE 5.0 grading",,incidence of AEs leading to death,0%
CCC[C@@](N)(CO)CCc1ccc(OCCCCCC(C)C)cc1,,,"dog, male hounds, plasma","oral capsule, 20 mg/kg, geometric mean",,AUC(0-t),20.9 µM·h
CC(C)C[C@H](NC(=O)[C@@H]1CCCN1C(=O)[C@@H](NC(=O)[C@H](CCC(=O)O)NC(=O)[C@H](CCCCN)NC(=O)[C@H](CCCCN)NC(=O)[C@H](Cc1ccc(O)cc1)NC(=O)[C@H](CC(N)=O)NC(=O)[C@H](Cc1ccccc1)NC(=O)[C@@H](N)CO)[C@@H](C)O)C(=O)O,SCRIB PDZ3 domain,"binding, fluorescence polarization",solution,Scribble PDZ3 domain,,Kd,1.5 µM
Cc1cccc(Cn2nc(C3CC3)c3c(NC(=O)c4cnc5cc(OCCN6CCN(C)CC6)ccn45)cccc32)n1,,"CTCAE v4.03, measured: blood alkaline phosphatase increased",advanced solid tumour patients,"oral, dose not given, all cohorts, together with: pembrolizumab IV every 3 weeks",,all-cause adverse events,15.8%
C[C@]1(O)C[C@@](N)(c2ccc(-c3nc4n(c3-c3ccccc3)COc3ccncc3-4)cc2)C1,,,"human, advanced or metastatic solid tumours","once daily, dose escalation total",,patients with grade ≥3 Rash TEAE,22.2%
C[C@@H]1OC(=O)NN=C1c1ccc(-c2ccc(F)cc2)c(C(F)(F)F)c1,,"phase I trial, measured: Cough worst grade 1",human patients,5 mg loading then 0.25 mg daily,,patients with adverse event,0%
COc1ccc2nc3cc(Cl)ccc3c(Nc3cc(CN4CCCC4)c(O)c(CN4CCCC4)c3)c2n1,,,"mouse, blood","intraperitoneal, 28 mg/kg",,mean platelet volume,6.25 fL
C[C@@H]1NC(=O)[C@H](CCCCNC(=O)CO/N=C/C(=O)NCCCC[C@@H]2NC(=O)[C@@H](Cc3ccccc3)NC(=O)[C@H](CC(=O)O)NC(=O)CNC(=O)[C@H](CCCNC(=N)N)NC2=O)NC(=O)CNC(=O)[C@@H]2CCCN2C(=O)[C@H](CCCCNC(=O)CO/N=C/C(=O)NCCCC[C@@H]2NC(=O)[C@@H](Cc3ccccc3)NC(=O)[C@H](CC(=O)O)NC(=O)CNC(=O)[C@H](CCCNC(=N)N)NC2=O)NC(=O)[C@H](CCCCNC(=O)CCNC(=O)CCNC(=O)CCNC(=O)[C@H](CCCCN)NC(=O)[C@H](Cc2ccccc2)NC(=O)CNC(=O)CN2CCCNCCNCCCNCC2)NC(=O)[C@H](CCCCNC(=O)CO/N=C/C(=O)NCCCC[C@@H]2NC(=O)[C@@H](Cc3ccccc3)NC(=O)[C@H](CC(=O)O)NC(=O)CNC(=O)[C@H](CCCNC(=N)N)NC2=O)NC(=O)CNC(=O)[C@@H]2CCCN2C(=O)[C@H](CCCCNC(=O)CO/N=C/C(=O)NCCCC[C@@H]2NC(=O)[C@@H](Cc3ccccc3)NC(=O)[C@H](CC(=O)O)NC(=O)CNC(=O)[C@H](CCCNC(=N)N)NC2=O)NC1=O [copper-64 labelled],,,"normal mice, muscle","intravenous, 0.74 MBq, 3 h post-injection",,tissue uptake,0.38 ± 0.02 %ID/g
C1=Cc2nc1cc1ccc([n-]1)c(C1CC1)c1nc(cc3ccc([n-]3)c2C2CC2)C=C1.CC(=O)[O-].[Mn+3],,LC-MS/MS,"Sprague-Dawley rat, plasma","oral gavage, dose not given, 120 min, individual rat Rat1",,plasma concentration,96 ng/mL
O=S(=O)(Nc1ccccc1)c1ccc(NC(=S)Nc2ccccc2)cc1,,,"mouse, male, spleen","oral, 20 mg/kg daily, 14 days",baseline: body weight,relative organ weight,0.31%
CO[C@H]1C[C@@H]2CC[C@@H](C)[C@@](O)(O2)C(=O)C(=O)N2CCCC[C@H]2C(=O)O[C@H]([C@H](C)C[C@@H]2CC[C@@H](OC(=O)NCCOCCOCCOCCOCCOCCOCCOCCOCCC(=O)N3CCc4cc(Cn5nc(-c6ccc7oc(N)nc7c6)c6c(N)ncnc65)ccc4C3)[C@H](OC)C2)C[C@@H](O)[C@H](C)/C=C(\C)[C@@H](O)[C@@H](OC)C(=O)[C@H](C)C[C@H](C)/C=C/C=C/C=C/1C,,dose-escalation trial,patients with advanced solid tumours,"intravenous, all doses weekly, grade ≥3",,treatment-related anaemia incidence,9%
COC[C@@H](CC(C)C)NC(=O)c1ccc(C)c(C)c1,,,"Hsd:ICR (CD-1) mouse, female, bone marrow","oral, 2000 mg/kg, 48 h",,PCE to total erythrocyte ratio,0.539
CCc1ccc(CC/C=C/c2ccc3c(c2)C(=O)CC3)cc1,,,"Sprague-Dawley rat, male, blood","oral, 450 mg/kg/day, 14 days",,platelet distribution width,49.8%
CC(C)[C@@H]1NC(=O)CNC(=O)[C@H](CC(N)=O)NC(=O)[C@H](CCCNC(=N)N)NC(=O)[C@H](Cc2ccc(O)cc2)NC(=O)[C@H](C(C)C)NC(=O)[C@@H](NC(=O)[C@@H](NC(=O)[C@H](CC(N)=O)NC(=O)[C@H](Cc2c[nH]c3ccccc23)NC(=O)[C@H](C)NC(=O)[C@H](Cc2ccccc2)NC(=O)CN)C(C)C)CSSC[C@@H](C(=O)N[C@@H](Cc2cnc[nH]2)C(=O)N[C@@H](CCCNC(=N)N)C(=O)N[C@@H](CCCNC(=N)N)C(=O)N[C@@H](C)C(=O)N[C@@H](CC(N)=O)C(N)=O)NC(=O)[C@H](C(C)C)NC(=O)[C@H](CCCNC(=N)N)NC1=O,,,"ICR mouse, blood","intramammary, 5 mg/kg, day 5, 3 d dosing",,ALT,48.8 ± 3.37 IU/L

# Some of these lines once more:
Compound,tested on,assay,system,setting,scale,endpoint,value
C[C@]1(CO)Cc2ncn(-c3ccc(C#N)c(Cl)c3)c2C(=O)O1,,,healthy humans,"concentration not given, multiple dose part total",,drug-related Somnolence incidence,2.2%
Cn1c(-c2ccc(C(N)=O)cc2F)nnc1C(C)(C)Oc1c(F)cc(Cl)cc1F,,,human,"oral, dose not given, single ascending dose all doses",,subjects with puncture site pain,5.6%
CO[C@H]1C[C@@H]2CC[C@@H](C)[C@@](O)(O2)C(=O)C(=O)N2CCCC[C@H]2C(=O)O[C@H]([C@H](C)C[C@@H]2CC[C@@H](OC(=O)NCCOCCOCCOCCOCCOCCOCCOCCOCCC(=O)N3CCc4cc(Cn5nc(-c6ccc7oc(N)nc7c6)c6c(N)ncnc65)ccc4C3)[C@H](OC)C2)C[C@@H](O)[C@H](C)/C=C(\C)[C@@H](O)[C@@H](OC)C(=O)[C@H](C)C[C@H](C)/C=C/C=C/C=C/1C,,dose-escalation trial,patients with advanced solid tumours,"intravenous, all doses weekly, grade ≥3",,treatment-related anaemia incidence,9%
Cc1ccc(F)c2cc(C(=O)N[C@@H]3CCC[C@H](N4CC[C@H](N(C)S(C)(=O)=O)C4)C3)[nH]c12,,,"CD1 mouse, plasma","oral, 100 mg/kg, 10 h",,plasma concentration,422 ng/mL
O=C(Nc1ccccc1)C1CCN(C(=O)Oc2cccnc2)CC1,,Bond-Lader VAS,healthy women,"oral, 60 mg","baseline: pre-dose baseline, direction not given",change in Tense-Relaxed score,12
